# Measurements collected from several papers.
# Lines come from different studies, so protocols differ.
SMILES,test,test system,setting,measurement,result
Cn1ncc(-c2nc(N[C@H]3CC[C@H](N)CC3)ncc2Cl)c1CC1CC1,measured: treatment-related Hypokalemia,human patients phase I,dose not given,patients with adverse events,16.1%
CCN(Cc1nc2c(N)nc3cc(-c4cc[nH]n4)ccc3c2[nH]1)C(C)=O,grade 1-2 leukocytosis,human,"intratumoral, dose not given",patients with adverse event,42%
C[C@@H]1OC(=O)NN=C1c1ccc(-c2ccc(F)cc2)c(C(F)(F)F)c1,"phase I trial, measured: Pneumonitis worst grade 3",human patients,5 mg loading then 0.25 mg daily,patients with adverse event,0%
COc1c(C)cnc(Cn2cc(C#CCCOP(=O)(O)O)c3c(Cl)nc(N)nc32)c1C,measured: nausea,"human, advanced solid tumours","concentration not given, at least possibly drug-related",patients with adverse event,44%
O=C1Nc2cc3[nH]nc(-c4ccncc4)c3cc2CN1Cc1ccccc1,CTCAE v4.03,"human, relapsed or refractory advanced solid tumours","intravenous, 9.6 mg/kg, pooled schedules",patients with nausea,22%
COc1ccc(-c2c(-c3ccc(C#N)c(F)c3)nc(N3CCC(N)CC3)n(C)c2=O)cc1F,measured: portal vein thrombosis,human patients,"oral, dose not given, dose escalation",patients with serious TEAE,2%
Cc1cn([C@H]2O[C@@H](CO[P@@](=O)(N[C@@H](C)C(=O)OC(C)C)Oc3ccccc3)[C@H](O)[C@H]2F)c(=O)[nH]c1=O,measured: Flu,human,25 mg,patients with TEAE,0%
CCN1[C@@H](C(=O)NC23CCC(C(=O)O)(CC2)CC3)[C@H](c2cccc(Cl)c2F)[C@]2(C(=O)Nc3cc(Cl)ccc32)C12CCCCC2,measured: any-grade treatment-related elevated ALT,"human, advanced solid tumours","oral, dose not given, phase I, all patients",patients with adverse event,4.8%
CN(C)C(=O)c1cc2cnc(Nc3ccc(N4CCNCC4)cn3)nc2n1C1CCCC1,"measured: Reproductive toxicity, AESI","human, HR+/HER2− advanced breast cancer","oral, dose not given, grade 3, CTCAE v4.03",patients with adverse event,0%
NC(=O)[C@H]1CCN(c2ncnc(N)c2F)C[C@@H]1N1CCC[C@@H](Nc2cc(Cl)cc(C(F)(F)F)c2)C1=O,,"human patients, blood","oral, dose not given, grade ≥3",patients with increased bilirubin,8%
CCS(=O)(=O)Nc1ccc(Oc2ccc(F)cc2F)c(-c2cn(C)c(=O)c3[nH]ccc23)c1,measured: Cellulitis,"human, relapsed/refractory AML","oral, dose not given, trial, together with: alone or with venetoclax",patients with serious adverse event,5%
CN[C@@H](C)C(=O)N[C@H]1CN(S(=O)(=O)c2cccc(S(=O)(=O)N3CC[C@H]4CC[C@@H](C(=O)NC(c5ccccc5)c5ccccc5)N4C(=O)[C@@H](NC(=O)[C@H](C)NC)C3)c2)CC[C@H]2CC[C@@H](C(=O)NC(c3ccccc3)c3ccccc3)N2C1=O,,"human, advanced solid tumours","intravenous, 12 mg weekly, CTCAE version 4.0",patients with any TRAE,0%
Cn1nc(NS(C)(=O)=O)c2c(Cl)ccc(-n3c([C@H](Cc4cc(F)cc(F)c4)NC(=O)Cn4nc(C(F)F)c5c4C(F)(F)[C@@H]4C[C@H]54)nc4nc(OCCC(F)(F)F)ccc4c3=O)c21,measured: total cholesterol grade 2 increase,human,"300 mg once daily, powder in bottle",patients with laboratory abnormality,13%
Cn1cncc1-c1c(F)cncc1NC(=O)c1c(N)nn2cc(F)cnc12,,human patients,"oral, up to 40 mg once daily",patients grade ≥3 Neutrophil count decrease,0%
CCN(CCO)CCCC(C)Nc1ccnc2cc(Cl)ccc12 (centres unmarked),,"human, newly diagnosed glioblastoma","oral, 200 mg/dose, dry skin grade 1, with RT and TMZ",patients with adverse event,33%
C[C@]1(O)C[C@@](N)(c2ccc(-c3nc4n(c3-c3ccccc3)COc3ccncc3-4)cc2)C1,,"human, advanced or metastatic solid tumours","24 mg intermittent, phase I dose escalation",patients with Pruritus TEAE,50%
C=CC(=O)Nc1cc(Nc2nccc(Nc3cc(Cl)c(F)cc3C(C)(C)O)n2)c(OC)cc1N1CC[C@@H](N(C)C)C1,,human patients,"oral, 400 mg, treatment-emergent adverse events",patients with paronychia,40%
COc1ncnn2ccc(-c3cnc4nc(C)n(Cc5nnc([C@@H](C)F)o5)c4c3)c12,,human,"oral, dose not given, grade 2",patients with diarrhea,42.9%
Cc1ncnc2c1ccn2[C@@H]1C[C@H](Oc2cc(C(F)F)c(F)c3c2CNCC3)[C@@H](O)[C@H]1O,,"human, phase I patients",dose not given,patients discontinued for adverse events,11%
O=C(c1ccc(F)c(F)c1Nc1ccc(I)cc1F)N1CC(O)([C@@H]2CCCCN2)C1,,human patients,"oral, 1 mg/kg, dose expansion cohort",patients with treatment-related SAE,17%

# Repeated from above:
SMILES,test,test system,setting,measurement,result
CCS(=O)(=O)Nc1ccc(Oc2ccc(F)cc2F)c(-c2cn(C)c(=O)c3[nH]ccc23)c1,measured: Cellulitis,"human, relapsed/refractory AML","oral, dose not given, trial, together with: alone or with venetoclax",patients with serious adverse event,5%
